{"data": "Measured values collected from several papers", "note": "A part holds a random share of what one study measured. Positions count from the first letter of the parent shown.", "UniProt O15294, sequence (whole entry, looked up)": "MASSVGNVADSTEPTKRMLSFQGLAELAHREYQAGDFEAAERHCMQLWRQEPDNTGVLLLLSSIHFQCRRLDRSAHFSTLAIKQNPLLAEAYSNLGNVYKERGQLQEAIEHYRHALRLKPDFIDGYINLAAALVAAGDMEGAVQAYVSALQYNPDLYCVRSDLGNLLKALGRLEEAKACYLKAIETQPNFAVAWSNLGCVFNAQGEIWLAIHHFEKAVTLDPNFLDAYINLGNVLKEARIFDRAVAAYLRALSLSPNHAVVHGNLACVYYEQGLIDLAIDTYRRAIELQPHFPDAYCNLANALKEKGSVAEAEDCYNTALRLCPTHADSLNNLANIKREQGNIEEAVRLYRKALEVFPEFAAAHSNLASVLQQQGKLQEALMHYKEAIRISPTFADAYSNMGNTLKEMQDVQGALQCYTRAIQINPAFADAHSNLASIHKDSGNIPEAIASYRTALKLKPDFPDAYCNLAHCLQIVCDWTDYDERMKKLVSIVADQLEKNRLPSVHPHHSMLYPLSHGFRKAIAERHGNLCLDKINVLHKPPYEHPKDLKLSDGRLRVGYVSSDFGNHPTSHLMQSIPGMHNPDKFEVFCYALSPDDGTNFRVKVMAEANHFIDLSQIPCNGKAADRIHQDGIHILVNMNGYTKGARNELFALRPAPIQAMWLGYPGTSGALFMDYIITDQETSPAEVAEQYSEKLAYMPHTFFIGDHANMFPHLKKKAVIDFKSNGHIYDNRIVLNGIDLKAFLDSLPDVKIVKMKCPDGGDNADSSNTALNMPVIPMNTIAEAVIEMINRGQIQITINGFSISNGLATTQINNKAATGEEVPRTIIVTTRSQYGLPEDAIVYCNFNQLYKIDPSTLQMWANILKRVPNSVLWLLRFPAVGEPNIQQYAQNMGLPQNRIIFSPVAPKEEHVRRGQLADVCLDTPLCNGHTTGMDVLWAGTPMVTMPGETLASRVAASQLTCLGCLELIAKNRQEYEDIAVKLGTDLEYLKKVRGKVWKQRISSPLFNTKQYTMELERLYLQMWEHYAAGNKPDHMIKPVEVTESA"}
{"data": "Study 1", "target": "PABPC1L2, full length, GST fusion (mouse, UniProt A0ABA7IW68)", "technique": "RNAcompete", "form": "RNA", "sample": "in vitro", "concentration": "20 nM", "notes": "7-mer, probes averaged, single round", "reference": "mean of 7-mers", "direction": "higher = stronger binding", "Construct (chain)": "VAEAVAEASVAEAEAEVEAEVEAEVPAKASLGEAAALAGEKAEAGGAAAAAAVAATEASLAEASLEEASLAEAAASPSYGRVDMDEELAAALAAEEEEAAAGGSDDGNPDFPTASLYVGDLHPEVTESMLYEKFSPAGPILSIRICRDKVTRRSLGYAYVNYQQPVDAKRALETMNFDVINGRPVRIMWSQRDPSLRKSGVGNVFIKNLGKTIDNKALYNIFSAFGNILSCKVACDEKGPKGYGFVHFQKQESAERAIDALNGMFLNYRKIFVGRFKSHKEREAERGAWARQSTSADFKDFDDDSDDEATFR"}
{"Oligonucleotide": "GUGCAAA", "7-mer Z-score": 0.619}
{"Oligonucleotide": "CGGCAAC", "7-mer Z-score": -0.137}
{"Oligonucleotide": "UGACUGG", "7-mer Z-score": -0.0409}
{"Oligonucleotide": "ACAAGUC", "7-mer Z-score": 0.0551}
{"Oligonucleotide": "GCCCUCG", "7-mer Z-score": -0.376}
{"Oligonucleotide": "AGGUGCC", "7-mer Z-score": 0.0569}
{"Oligonucleotide": "CUGCGAG", "7-mer Z-score": -0.0246}
{"Oligonucleotide": "UGUGCUA", "7-mer Z-score": -0.0319}
{"data": "Study 2", "target": "JUND, bZIP domain (human)", "technique": "DHFR protein complementation", "sample": "yeast", "notes": "single substitutions, most at no-binding floor", "reference": "wild-type JUN-FOS pair", "direction": "higher = stronger binding", "parent": "JUN, bZIP domain (human); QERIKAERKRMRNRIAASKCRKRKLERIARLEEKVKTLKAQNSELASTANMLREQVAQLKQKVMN; partner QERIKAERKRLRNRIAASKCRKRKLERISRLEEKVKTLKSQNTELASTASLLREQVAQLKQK"}
{"Variant": "R30M", "binding fitness [natural log]": -0.566}
{"Variant": "S43G", "binding fitness [natural log]": -0.744}
{"Variant": "M51Q", "binding fitness [natural log]": -0.542}
{"Variant": "E44A", "binding fitness [natural log]": -0.785}
{"Variant": "A49L", "binding fitness [natural log]": -0.916}
{"Variant": "A40I", "binding fitness [natural log]": -0.782}
{"Variant": "E54C", "binding fitness [natural log]": -1.19}
{"Variant": "E44D", "binding fitness [natural log]": -0.917}
{"data": "Study 3", "target": "RNA binding protein fox-1 homolog 2, RRM domain, GST-SBP tag (RBFOX2, Homo sapiens, UniProt O43251-10, residues 100-194)", "technique": "RNA Bind-n-Seq", "form": "RNA", "sample": "in vitro", "concentration": "365 nM", "notes": "natural RNA segment, single round, ends assumed", "reference": "no-protein control", "direction": "higher = stronger binding", "all sequences stand within": "GGGAGUUCUACAGUCCGACGAUC … UGGAAUUCUCGGGUGCCAA", "Target sequence (chain)": "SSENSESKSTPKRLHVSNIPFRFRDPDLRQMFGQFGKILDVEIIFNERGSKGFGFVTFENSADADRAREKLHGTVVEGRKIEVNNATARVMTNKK"}
{"Oligonucleotide": "AUCAUGGCUCCUAUCAGUCUCAGAUUCCAGAUCUAGCAUUCCAGAUCUGAAUUUCAGAUUCAGAUCAGGCAUUGGCUGUAAAGUCUACCACGAAGUCCCAAUCUACCCUU", "RBNS enrichment (R)": 0.221}
{"Oligonucleotide": "AUGAAGCAAGCACUAAAGUACUGUCCUGAGUUGGGAACAAAGCACUGUGGGCAAGGUCGAUGCAAUGCCUGCACUACAGGCCUGUCUUCUGUGGAUCUCUCUCCUUGGCC", "RBNS enrichment (R)": 0.238}
{"Oligonucleotide": "GUGCCCUCCACCUAGGGAAGCAUGAACCACAGGGUCCCUGAGGGCCUUCGACAAAAGUGUGUAUUUGUCCCGGGGAGGGUAGCAGUGGGCCAUGGGGCUUCUUGUGCCCU", "RBNS enrichment (R)": 2.29}
{"Oligonucleotide": "CCAGAUUCGGAAACUUCAACCUUGGCUGCUGGAGUCCUGUAGUGAUACCUGUAACAAUCAGAAAUUCUUAAUCGCUUGUGGUAUGGUUUUAAUUCUAGAUGUUUUAUCUC", "RBNS enrichment (R)": 1.21}
{"Oligonucleotide": "UUUACACUGUCUUUAAAAGGCCAAAUAAGGCUGGGCGCAGUGGCUCACACCUGUAAUCCCAACAUUUUGGGAGCCCAAGGCGGCCGGACCACCUGAGGUCGGGAGUUCAA", "RBNS enrichment (R)": 0.324}
{"Oligonucleotide": "AAGUUUAUGUGGUACAGACAUGCCCUUGAGGUUGGUGGAAAAUAAAAAACAAGACCCUUCACACAGUUAGCUCAGGCCAUUUUAAGGACGAAGGCUCUGCUGGUCCUCCU", "RBNS enrichment (R)": 0.218}
{"Oligonucleotide": "AACAAAAGGAAAGAAACUACCUUUUUAUAAUGCACAACUGUUGAUGGUAGGCUGUAUAGUUUUUAGUCUGUGUAGUUAAUUUAAUUUGCAGUUUGUGCGGCAGAUUGCUC", "RBNS enrichment (R)": 0.698}
{"Oligonucleotide": "CUUACAGAAGAAGUGGCCCUCCAUAGACAUGUGUAGCAUCAAAACACAAAGGCCCACACUUCCUGACGGAUGCCAGCUUGGGCACUGCUGUCUACUGACCCCAACCCUUG", "RBNS enrichment (R)": 1.05}
{"data": "Single results of other studies"}
{"Sequence": "NYPVHNHDFFEHHHI", "target": "UDP-N-acetylglucosamine--peptide N-acetylglucosaminyltransferase 110 kDa subunit (OGT, Homo sapiens, UniProt O15294)", "test": "phage display binding, phage display panning NGS", "system": "peptide", "scale": "reference: OGT-panned over input library", "endpoint": "log2 fold enrichment", "result": 6.02}
{"note": "Some of these lines once more (study 2):"}
{"Variant": "R30M", "binding fitness [natural log]": -0.566}
{"Variant": "S43G", "binding fitness [natural log]": -0.744}
{"Variant": "M51Q", "binding fitness [natural log]": -0.542}
{"Variant": "E44A", "binding fitness [natural log]": -0.785}
